Experimental data collected from several papers.
Protocols differ between the studies behind these lines. ± gives the spread as reported. Where no end group is shown, it is not given here. No end group written: not given here. [ ]: non-standard residue; d: D form. *: point of attachment.
B1: TLN1 2494-2541 (Homo sapiens, UniProt Q9Y490); C-terminal Oregon Green 488; chain MVGGIAQIIAAQEEMLRKERELEEARKKLAQIRQQQYKFLPSELRDEHGC(Oregon Green 488 maleimide)
B2: MYBPC3 1-95 (Homo sapiens, UniProt Q14896); sequence looked up; chain MPEPGKKPVSAFSKKPRSVEVAAGSPAVFEAETERAGVKVRWQRGGSDISASNKYGLATEGTRHTLTVREVGPADQGSYAVIAGSSKVKFDLKVI
B3: Sema6A ectodomain , Fc fusion 19-571 (Mus musculus, UniProt O35464); chain GFPEDSEPISISHGNYTKQYPVFVGHKPGRNTTQRHRLDIQMIMIMNRTLYVAARDHIYTVDIDTSHTEEIYCSKKLTWKSRQADVDTCRMKGKHKDECHNFIKVLLKKNDDTLFVCGTNAFNPSCRNYRVDTLETFGDEFSGMARCPYDAKHANIALFADGKLYSATVTDFLAIDAVIYRSLGDSPTLRTVKHDSKWLKEPYFVQAVDYGDYIYFFFREIAVEYNTMGKVVFPRVAQVCKNDMGGSQRVLEKQWTSFLKARLNCSVPGDSHFYFNILQAVTDVIRINGRDVVLATFSTPYNSIPGSAVCAYDMLDIANVFTGRFKEQKSPDSTWTPVPDERVPKPRPGCCAGSSSLEKYATSNEFPDDTLNFIKTHPLMDEAVPSIINRPWFLRTMVRYRLTKIAVDNAAGPYQNHTVVFLGSEKGIILKFLARIGSSGFLNGSLFLEEMNVYNPEKCSYDGVEDKRIMGMQLDRASGSLYVAFSTCVIKVPLGRCERHGKCKKTCIASRDPYCGWVRESGSCAHLSPLSRLTFEQDIERGNTDGLGDCHNS
B4: Reln 1948-2662 (Mus musculus, UniProt Q60841); chain DGNNLNNPVLLLDTFDFGPREDNWFFYPGGNIGLYCPYSSKGAPEEDSAMVFVSNEVGEHSITTRDLSVNENTIIQFEINVGCSTDSSSADPVRLEFSRDFGATWHLLLPLCYHSSSLVSSLCSTEHHPSSTYYAGTTQGWRREVVHFGKLHLCGSVRFRWYQGFYPAGSQPVTWAIDNVYIGPQCEEMCYGHGSCINGTKCICDPGYSGPTCKISTKNPDFLKDDFEGQLESDRFLLMSGGKPSRKCGILSSGNNLFFNEDGLRMLVTRDLDLSHARFVQFFMRLGCGKGVPDPRSQPVLLQYSLNGGLSWSLLQEFLFSNSSNVGRYIALEMPLKARSGSTRLRWWQPSENGHFYSPWVIDQILIGGNISGNTVLEDDFSTLDSRKWLLHPGGTKMPVCGSTGDALVFIEKASTRYVVTTDIAVNEDSFLQIDFAASCSVTDSCYAIELEYSVDLGLSWHPLVRDCLPTNVECSRYHLQRILVSDTFNKWTRITLPLPSYTRSQATRFRWHQPAPFDKQQTWAIDNVYIGDGCLDMCSGHGRCVQGSCVCDEQWGGLYCDEPETSLPTQLKDNFNRAPSNQNWLTVSGGKLSTVCGAVASGLALHFSGGCSRLLVTVDLNLTNAEFIQFYFMYGCLITPSNRNQGVLLEYSVNGGITWNLLMEIFYDQYSKPGFVNILLPPDAKEIATRFRWWQPRHDGLDQNDWAIDNVLIS
B5: MYH7 839-968 (Homo sapiens, UniProt P12883); sequence looked up; chain LLKSAEREKEMASMKEEFTRLKEALEKSEARRKELEEKMVSLLQEKNDLQLQVQAEQDNLADAEERCDQLIKNKIQLEAKVKEMNERLEDEEEMNAELTAKKRKLEDECSELKRDIDDLELTLAKVEKEK
B6: UGT1A9 (Homo sapiens, UniProt O60656); chain GKLLVVPMDGSHWFTMRSVVEKLILRGHEVVVVMPEVSWQLGRSLNCTVKTYSTSYTLEDLDREFKAFAHAQWKAQVRSIYSLLMGSYNDIFDLFFSNCRSLFKDKKLVEYLKESSFDAVFLDPFDNCGLIVAKYFSLPSVVFARGILCHYLEEGAQCPAPLSYVPRILLGFSDAMTFKERVRNHIMHLEEHLLCHRFFKNALEIASEILQTPVTEYDLYSHTSIWLLRTDFVLDYPKPVMPNMIFIGGINCHQGKPLPMEFEAYINASGEHGIVVFSLGSMVSEIPEKKAMAIADALGKIPQTVLWRYTGTRPSNLANNTILVKWLPQNDLLGHPMTRAFITHAGSHGVYESICNGVPMVMMPLFGDQMDNAKRMETKGAGVTLNVLEMTSEDLENALKAVINDKSYKENIMRLSSLHKDRPVEPLDLAVFWVEFVMRHKGAPHLRPAAHDLTWYQYHSLDVIGFLLAVVLTVAFITFKCCAYGYRKCLGKKGRVKKAHKSKTH
B7: GORASP1 PDZ domain (Homo sapiens); chain EGFHLHGVQENSPAQQAGLEPYFDFIITIGHSRLNKENDTLKALLKANVEKPVKLEVFNMKTMRVREVEVVPSNMWGGQGLLGASVRFCSF
B8: LAIR1 extracellular domain 22-165 (Homo sapiens, UniProt Q6GTX8); sequence looked up; chain QEEDLPRPSISAEPGTVIPLGSHVTFVCRGPVGVQTFRLERDSRSTYNDTEDVSQASPSESEARFRIDSVREGNAGLYRCIYYKPPKWSEQSDYLELLVKESSGGPDSPDTEPGSSAGPTQRPSDNSHNEHAPASQGLKAEHLY
B9: HSPB5 (Homo sapiens, UniProt P02511); sequence looked up; chain MDIAIHHPWIRRPFFPFHSPSRLFDQFFGEHLLESDLFPTSTSLSPFYLRPPSFLRAPSWFDTGLSEMRLEKDRFSVNLDVKHFSPEELKVKVLGDVIEVHGKHEERQDEHGFISREFHRKYRIPADVDPLTITSSLSSDGVLTVNGPRKQVSGPERTIPITREEKPAVTAAPKK
B10: Fermt2 PH 386-496 (Mus musculus, UniProt Q8CIB5); Atto520 label; sequence looked up; chain KLTLKGYKQYWCTFKDTSISCYKSREESSGTPAHQLNLRGCEVTPDVNISGQKFNIKLLIPVAEGMNEIWLRCDNEKQYAHWMAACRLASKGKTMADSSYNLEVQNILSFL
B11: CACYBP (Homo sapiens, UniProt Q9HB71); sequence looked up; chain MASEELQKDLEEVKVLLEKATRKRVRDALTAEKSKIETEIKNKMQQKSQKKAELLDNEKPAAVVAPITTGYTVKISNYGWDQSDKFVKIYITLTGVHQVPTENVQVHFTERSFDLLVKNLNGKSYSMIVNNLLKPISVEGSSKKVKTDTVLILCRKKVENTRWDYLTQVEKECKEKEKPSYDTETDPSEGLMNVLKKIYEDGDDDMKRTINKAWVESREKQAKGDTEF
B12: TIMP3 (Homo sapiens, UniProt P35625); sequence looked up; chain CTCSPSHPQDAFCNSDIVIRAKVVGKKLVKEGPFGTLVYTIKQMKMYRGFTKMPHVQYIHTEASESLCGLKLEVNKYQYLLTGRVYDGKMYTGLCNFVERWDQLTLSQRKGLNYRYHLGCNCKIKSCYYLPCFVTSKNECLWTDMLSNFGYPGYQSKHYACIRQKGGYCSWYRGWAPPDKSIINATDP
Sequence of UniProt O95817 (whole entry, looked up): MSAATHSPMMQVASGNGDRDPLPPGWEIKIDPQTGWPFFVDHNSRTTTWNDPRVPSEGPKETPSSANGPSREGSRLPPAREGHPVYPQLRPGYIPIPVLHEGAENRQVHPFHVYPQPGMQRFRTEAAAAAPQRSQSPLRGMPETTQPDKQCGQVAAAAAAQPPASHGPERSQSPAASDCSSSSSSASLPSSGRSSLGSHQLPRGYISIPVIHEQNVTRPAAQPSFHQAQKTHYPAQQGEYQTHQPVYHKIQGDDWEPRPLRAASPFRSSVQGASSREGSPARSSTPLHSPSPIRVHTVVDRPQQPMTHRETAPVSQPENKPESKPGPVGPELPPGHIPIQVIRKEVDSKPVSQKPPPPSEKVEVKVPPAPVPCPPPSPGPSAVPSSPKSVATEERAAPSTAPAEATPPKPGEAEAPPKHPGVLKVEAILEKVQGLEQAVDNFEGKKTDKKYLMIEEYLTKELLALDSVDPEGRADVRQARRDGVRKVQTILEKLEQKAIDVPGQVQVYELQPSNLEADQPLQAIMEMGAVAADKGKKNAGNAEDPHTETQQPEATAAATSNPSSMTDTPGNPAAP
Sequence of UniProt P50524 (whole entry, unmodified, looked up): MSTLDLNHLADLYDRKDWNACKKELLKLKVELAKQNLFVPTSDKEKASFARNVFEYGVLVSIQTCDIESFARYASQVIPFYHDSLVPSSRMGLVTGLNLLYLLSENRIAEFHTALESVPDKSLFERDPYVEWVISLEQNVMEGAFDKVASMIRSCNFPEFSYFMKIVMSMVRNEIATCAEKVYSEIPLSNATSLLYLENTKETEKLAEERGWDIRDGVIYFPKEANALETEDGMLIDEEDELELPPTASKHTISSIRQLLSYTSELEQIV
Sequence of UniProt P26447 (whole entry, looked up): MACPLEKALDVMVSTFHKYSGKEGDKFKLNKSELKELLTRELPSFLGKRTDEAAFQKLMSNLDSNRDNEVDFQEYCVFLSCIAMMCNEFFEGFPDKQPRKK
Sequence of UniProt O15392 (whole entry, looked up): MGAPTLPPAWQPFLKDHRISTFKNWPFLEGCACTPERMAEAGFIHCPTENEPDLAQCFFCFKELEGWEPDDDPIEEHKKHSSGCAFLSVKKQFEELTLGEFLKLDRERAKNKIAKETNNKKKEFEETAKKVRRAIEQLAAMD
Sequence of UniProt Q16539 (whole entry, looked up): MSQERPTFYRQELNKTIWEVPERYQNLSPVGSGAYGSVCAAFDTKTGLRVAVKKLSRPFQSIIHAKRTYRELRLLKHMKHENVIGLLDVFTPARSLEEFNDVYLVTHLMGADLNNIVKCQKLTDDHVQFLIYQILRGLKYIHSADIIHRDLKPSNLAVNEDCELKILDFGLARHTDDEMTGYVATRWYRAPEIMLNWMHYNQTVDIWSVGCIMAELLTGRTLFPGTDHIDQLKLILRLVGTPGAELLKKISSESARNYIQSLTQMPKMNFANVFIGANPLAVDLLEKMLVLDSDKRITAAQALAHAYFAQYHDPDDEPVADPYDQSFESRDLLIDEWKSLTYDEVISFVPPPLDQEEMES
Sequence of UniProt Q6PL18 (whole entry, looked up): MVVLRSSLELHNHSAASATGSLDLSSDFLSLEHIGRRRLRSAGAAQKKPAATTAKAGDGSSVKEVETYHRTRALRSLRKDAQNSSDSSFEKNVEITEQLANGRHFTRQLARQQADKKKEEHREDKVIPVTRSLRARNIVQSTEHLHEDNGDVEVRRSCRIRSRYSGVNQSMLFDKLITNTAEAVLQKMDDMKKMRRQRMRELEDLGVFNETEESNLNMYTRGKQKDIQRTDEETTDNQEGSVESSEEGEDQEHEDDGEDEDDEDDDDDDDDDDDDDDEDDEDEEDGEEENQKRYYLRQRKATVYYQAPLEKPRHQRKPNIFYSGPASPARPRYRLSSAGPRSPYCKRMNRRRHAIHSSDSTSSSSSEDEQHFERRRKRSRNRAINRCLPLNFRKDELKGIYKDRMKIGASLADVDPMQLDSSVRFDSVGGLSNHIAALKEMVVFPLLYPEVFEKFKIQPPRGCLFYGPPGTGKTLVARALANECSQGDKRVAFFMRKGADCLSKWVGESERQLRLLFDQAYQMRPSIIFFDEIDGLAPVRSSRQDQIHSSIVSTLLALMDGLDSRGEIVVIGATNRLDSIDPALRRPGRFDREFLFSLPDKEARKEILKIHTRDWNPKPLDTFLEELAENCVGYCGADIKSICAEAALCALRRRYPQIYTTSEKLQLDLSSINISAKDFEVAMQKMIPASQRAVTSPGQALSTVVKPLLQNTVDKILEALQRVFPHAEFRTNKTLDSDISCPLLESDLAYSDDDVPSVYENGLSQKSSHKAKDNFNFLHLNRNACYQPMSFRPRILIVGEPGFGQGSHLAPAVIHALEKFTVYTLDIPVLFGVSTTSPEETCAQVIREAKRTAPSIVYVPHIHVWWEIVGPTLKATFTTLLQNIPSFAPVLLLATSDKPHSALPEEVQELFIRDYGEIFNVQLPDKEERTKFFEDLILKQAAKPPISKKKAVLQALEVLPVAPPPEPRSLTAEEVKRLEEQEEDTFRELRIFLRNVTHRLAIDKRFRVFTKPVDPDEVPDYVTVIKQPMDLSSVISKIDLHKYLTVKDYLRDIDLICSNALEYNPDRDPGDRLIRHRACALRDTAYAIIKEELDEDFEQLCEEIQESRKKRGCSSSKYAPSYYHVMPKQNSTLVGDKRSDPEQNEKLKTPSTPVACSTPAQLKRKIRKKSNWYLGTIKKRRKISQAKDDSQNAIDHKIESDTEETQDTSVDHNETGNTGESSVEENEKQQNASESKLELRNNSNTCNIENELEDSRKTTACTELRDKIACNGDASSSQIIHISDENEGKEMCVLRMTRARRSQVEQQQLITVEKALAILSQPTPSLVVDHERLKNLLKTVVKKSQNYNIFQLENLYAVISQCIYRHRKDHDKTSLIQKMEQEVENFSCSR
Sequence of UniProt P52917 (whole entry, unmodified, looked up): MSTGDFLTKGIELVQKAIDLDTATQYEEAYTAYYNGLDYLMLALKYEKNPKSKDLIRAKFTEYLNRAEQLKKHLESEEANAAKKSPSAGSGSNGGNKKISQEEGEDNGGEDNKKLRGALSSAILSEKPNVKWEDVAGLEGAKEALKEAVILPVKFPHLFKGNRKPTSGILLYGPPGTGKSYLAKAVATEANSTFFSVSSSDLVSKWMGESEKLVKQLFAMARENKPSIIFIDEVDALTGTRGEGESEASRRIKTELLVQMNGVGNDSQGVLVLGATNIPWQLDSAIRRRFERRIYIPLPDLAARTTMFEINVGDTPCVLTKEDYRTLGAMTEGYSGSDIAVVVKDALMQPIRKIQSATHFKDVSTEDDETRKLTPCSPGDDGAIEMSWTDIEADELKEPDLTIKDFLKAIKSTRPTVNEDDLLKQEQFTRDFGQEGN
Sequence of UniProt O94444 (whole entry, looked up): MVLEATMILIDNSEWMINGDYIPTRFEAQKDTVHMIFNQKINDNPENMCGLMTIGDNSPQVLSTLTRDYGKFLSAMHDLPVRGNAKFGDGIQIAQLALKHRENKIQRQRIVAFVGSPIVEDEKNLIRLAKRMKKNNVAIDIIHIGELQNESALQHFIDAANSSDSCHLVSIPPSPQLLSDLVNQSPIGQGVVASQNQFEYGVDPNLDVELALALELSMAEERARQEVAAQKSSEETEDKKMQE
Sequence of UniProt Q08AI8 (whole entry, looked up): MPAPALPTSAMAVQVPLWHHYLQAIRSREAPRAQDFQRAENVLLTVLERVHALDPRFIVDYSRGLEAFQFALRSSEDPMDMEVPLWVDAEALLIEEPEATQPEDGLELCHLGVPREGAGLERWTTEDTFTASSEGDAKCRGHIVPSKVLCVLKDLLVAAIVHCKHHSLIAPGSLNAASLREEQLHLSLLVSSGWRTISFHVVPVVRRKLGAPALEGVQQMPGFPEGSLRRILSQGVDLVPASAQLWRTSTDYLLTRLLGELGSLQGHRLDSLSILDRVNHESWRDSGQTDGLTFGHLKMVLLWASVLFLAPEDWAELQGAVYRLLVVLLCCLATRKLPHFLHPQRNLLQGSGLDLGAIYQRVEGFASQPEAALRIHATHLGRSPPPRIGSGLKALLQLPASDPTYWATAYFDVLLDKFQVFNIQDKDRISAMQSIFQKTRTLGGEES
Sequence of UniProt Q8NHJ6 (whole entry, looked up): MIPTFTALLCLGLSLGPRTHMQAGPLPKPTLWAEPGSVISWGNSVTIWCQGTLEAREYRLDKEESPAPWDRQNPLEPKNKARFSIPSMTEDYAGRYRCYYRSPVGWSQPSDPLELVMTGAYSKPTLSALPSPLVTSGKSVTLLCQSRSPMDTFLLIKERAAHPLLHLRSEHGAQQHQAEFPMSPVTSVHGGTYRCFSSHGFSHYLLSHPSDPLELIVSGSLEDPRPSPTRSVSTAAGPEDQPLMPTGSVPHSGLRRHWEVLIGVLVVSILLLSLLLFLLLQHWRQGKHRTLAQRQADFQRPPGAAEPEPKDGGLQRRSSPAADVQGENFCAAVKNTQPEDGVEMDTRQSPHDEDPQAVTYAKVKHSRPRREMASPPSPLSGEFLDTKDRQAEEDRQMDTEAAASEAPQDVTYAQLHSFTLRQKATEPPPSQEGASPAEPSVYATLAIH

For `TREM2 fragment (Homo sapiens)`, the Kd was 2.3 ± 0.4 µM (amyloid beta 40 fibrils (UniProt P05067); co-sedimentation; apparent).
With `TKDELTKIMDRASKIEQIQKLAKYAISALNYEDLPRAKDELTKALDLLNSI (VTA1 280-330 T315R (Saccharomyces cerevisiae, UniProt Q06263); sequence looked up)` the Kd was 440 ± 61 µM (VPS4 299-415 (Saccharomyces cerevisiae, UniProt P52917); SPR; pH 7.0, NaCl 150 mM, equilibrium fit).
`B1 (TLN1 2494-2541)` has a Kd of 1.9 ± 0.2 µM (TLN1 2293-2541 (Homo sapiens, UniProt Q9Y490); fluorescence polarisation; peptide; pH 7.2, 4 °C, together with: Oregon Green-labelled DD-GC 25 nM).
With `B2 (MYBPC3 1-95)` the Kd was 3.2 ± 1.7 µM (MYH7/MYL2 MYH7 806-963; ITC).
For `APADGEGGSELQPKNKRMTISRLVLEEDSQSTEPSAGLNSSQE (TERF2 382-424 (Homo sapiens, UniProt Q15554); sequence looked up)`, the Kd was 0.176 µM (TINF2/ACD TPP1 486-544 (Homo sapiens); ITC).
The Kd of `B3` is reported as 0.015 µM (PlxnA2 35-703 (Mus musculus, UniProt P70207); SPR; Fc fusion).
For `B4 (Reln 1948-2662)`, the Kd was 0.41 µM (LRP8 ectodomain, lacking LA4-6 (Homo sapiens); SPR; pH 5.5, steady-state affinity).
`B5 (MYH7 839-968)` has a Kd of 60 ± 8 µM (MYH7/MYL3 sS1 1-808 D239N (Homo sapiens); MST; pH 7.5, KCl 100 mM, Hill fit, together with: ADP 500 µM).
With `B6 (UGT1A9)` the Vmax was 0.00442 µmol/min/mg (CC(C)(c1ccc(O)cc1)c1ccc(O)cc1; steady-state kinetics; pH 7.4, 37 °C).
For `B7 (GORASP1 PDZ domain)`, the Kd was 53.8 µM (RPS6KA1 fragment, pS732 (Homo sapiens); holdup assay; estimated).
For `B8`, the Kd was > 200 µM (LILRB4 extracellular domain 22-259 (Homo sapiens, UniProt Q8NHJ6); SPR; 37 °C, equilibrium fit).
`rpn10 (Schizosaccharomyces pombe, UniProt O94444)` has a Kd of 182 ± 35 µM (rpn12 1-250 N106A/H112A/E116A, Oregon Green label (Schizosaccharomyces pombe, UniProt P50524); fluorescence polarization; 0-370 µM, 20 min, pH 7.4, 25 °C, NaCl 150 mM).
`ART[Lys(Me2)]QTARKSTG (histone H3 2-13 (UniProt P68431); K4me2; Lys(Me2) = CN(C)CCCC[C@H](N)C(=O)O; sequence looked up)` gave a Kd of 12 ± 0.8 µM (BIRC5 1-142 (Homo sapiens, UniProt O15392); ITC; peptide; pH 7.2).
`ARTK(Me2)QTARKSTGY (histone H3 peptide 2-13 (UniProt P68431); K4me2)` has a Kd of 3190 ± 830 µM (MORF4L1 1-90 (Homo sapiens, UniProt Q9UBU8-2); NMR titration; peptide; pH 7.5, 25 °C).
With `ribosomes whole ribosome (Rattus norvegicus)` the Kd was 0.00633 ± 0.00073 µM (CRIP3 active 22-286 del163-164/del167-189 (Zea mays, UniProt P28522); SPR; ribosomes).
`RRRRRRC / CGSFPPWVQKTEV (peptide; cyclic, disulfide-linked poly-Arg)` gave a Kd of 0.119 µM (DLG4 309-422 (Homo sapiens, UniProt P78352); SPR; peptide).
With `SGRGK(Ac)GGKGL (histone H4 residues 1-10; acetylated K5)` the Kd was 91.4 µM (ATAD2 bromodomain 981-1108, Cys1057-Cys1079 disulfide (Homo sapiens, UniProt Q6PL18); ITC; peptide; pH 7.0, 5 °C, NaCl 150 mM).
For `B9 (HSPB5)`, the Kd was 5 µM (BAG3 (Homo sapiens, UniProt O95817); ITC; 25 °C, relative values).
`B10 (Fermt2 PH 386-496)` gave a Kd of 1.08 ± 0.32 µM (Pxn, Atto520 label (Mus musculus, UniProt Q8VI36-2); ITC).
`BACH1 fragment (Homo sapiens)` has a Kd of 0.09 µM (FBXO22/SKP1 full length FBXO22 (Homo sapiens); BLI; 30 °C).
`CFH fragment (Homo sapiens)` has a Kd of 10 µM (C3 C3b (Homo sapiens); SPR; 20 µM, 25 °C).
`B11 (CACYBP)` gave a Kd of 2.1 µM (MAB21L4 (Homo sapiens, UniProt Q08AI8); MST).
`{5‑TAMRA-Ahx}-NLSELDRLLDELN (PXN residues 141-153 L10D; N-terminal TAMRA, aminohexanoyl linker; 5‑TAMRA = CN(C)c1ccc2c(-c3ccc(C(=O)*)cc3C(=O)[O-])c3ccc(N(C)C)cc3[o+]c2c1; Ahx = NCCCCCC(=O)O)` gave a Kd of 4500 µM (PTK2 892-1052 L1035D (Homo sapiens, UniProt Q05397); fluorescence polarisation; peptide).
The Kd of `Il2rg extracellular domain (Mus musculus) (sequence not shown)` is reported as 50.8 µM (Il7r fragment (Mus musculus); SPR; monomeric and dimeric forms).
For `SYK N-terminal SH2 domain`, the Kd was 10.5 µM (CLEC1B fragment, pY7 (Homo sapiens); SPR; equilibrium Kd).
`S100A4, QSY 35 on amines (Homo sapiens, UniProt P26447)` gave a Kd of 0.0304 µM (SRXN1 C99S, Alexa 546 label (Homo sapiens); FRET; apparent, with Ca2+, together with: Ca2+).
For `APP Aβ, β-GalNAc on Tyr10`, the Kd was 17.9 µM (Aβ42 (Homo sapiens, UniProt P05067); BLI).
With `B12 (TIMP3)` the Kd was 0.033 ± 0.012 µM (LRP1 (Homo sapiens, UniProt Q07954); SPR; 25 °C).
`MGLQERRGSNVSLTLDMCTPGCNEEGFGYLVSPREESAHEYLLS (PTPN5 residues 214-257)` gave a Kd of 1.34 ± 0.135 µM (MAPK14 unphosphorylated (UniProt Q16539); ITC; peptide; 25 °C).

For quick reference, copied from above:
With `SGRGK(Ac)GGKGL (histone H4 residues 1-10; acetylated K5)` the Kd was 91.4 µM (ATAD2 bromodomain 981-1108, Cys1057-Cys1079 disulfide (Homo sapiens, UniProt Q6PL18); ITC; peptide; pH 7.0, 5 °C, NaCl 150 mM).
The Kd of `Il2rg extracellular domain (Mus musculus) (sequence not shown)` is reported as 50.8 µM (Il7r fragment (Mus musculus); SPR; monomeric and dimeric forms).
